Assay results from different studies.
± marks the error that the study gave.

Cc1cc2nc3c(nc2cc1C)-c1ccc2[n]1[Au-]14[n]5c(ccc5-3)C=[N+]1CCC[N+]4=C2.F[P-](F)(F)(F)(F)F  logP (octanol/water): 1.02
COc1ccccc1C=CC(=O)Nc1ccc(-c2ccc(NC(=O)C=Cc3ccccc3OC)cc2)cc1  logP (shake flask UV/Vis; n-octanol/water): 6.1
COc1ccc(Nc2nc(Nc3ccc(OCCOCC[18F])cc3)ncc2Br)cc1  logP (n-octanol/PBS; pH 7.4): 2.97 ± 0.1
C1=[N+]2CCCC[N+]3=Cc4ccc5[n]4[Au-]23[n]2c1ccc2-c1nc2ccccc2nc1-5.F[P-](F)(F)(F)(F)F  logP (octanol/water): 0.878
CCCCCCC(=O)[O][Pt]([NH2])([NH2])([Cl])([Cl])[O]C(=O)CCC(C)C1CCC2C3CCC4CC(O)CCC4(C)C3CCC12C (stereo not drawn)  logP (shake flask; octanol/phosphate buffer; pH 7.4): -0.29
COc1cc(C2CC(Nc3ccc(-c4ccc(NC5=NN(C(C)=O)C(c6ccc(O)c(OC)c6)C5)cc4)cc3)=NN2C(C)=O)ccc1O (stereo not drawn)  logP (shake flask UV/Vis; n-octanol/water): 5.25
CC(=O)[O][Pt]([NH2])([NH2])([Cl])([Cl])[O]C(=O)CCC(C)C1CCC2C3CCC4CC(O)CCC4(C)C3CCC12C (stereo not drawn)  logP (shake flask; octanol/phosphate buffer; pH 7.4): -0.53
CN(C)c1ccc(/C=C/c2cc(=O)cc(/C=C/c3ccc(N(C)C)cc3)o2)cc1  logP (n-octanol/10 mM PBS; pH 7.4): 2.61
O=c1cc(-c2ccc(O)c(O)c2)oc2cc(O)cc([O][Ga+][O]c3cc(O)cc4oc(-c5ccc(O)c(O)c5)cc(=O)c34)c12  logP (shake-flask octanol/PBS; pH 7.4, 37 °C): 0.95
O=C(C=Cc1ccccc1)Nc1ccc(-c2ccc(NC(=O)C=Cc3ccccc3)cc2)cc1  logP (shake flask UV/Vis; n-octanol/water): 6.51
Nc1cc2cccnc2c2ncccc12.[Cl-].[Cl-].[Ru+2].c1cnc2c(c1)ccc1cccnc12.c1cnc2c(c1)ccc1cccnc12  logP (shake flask; n-octanol/water): -1.12
O=c1cc(-c2ccc(O)cc2)oc2cc(O)cc([O][Ga+][O]c3cc(O)cc4oc(-c5ccc(O)cc5)cc(=O)c34)c12  logP (shake-flask octanol/PBS; pH 7.4, 37 °C): 1.56
CC(=O)N1N=C(Nc2ccc(-c3ccc(NC4=NN(C(C)=O)C(c5ccccc5)C4)cc3)cc2)CC1c1ccccc1 (stereo not drawn)  logP (shake flask UV/Vis; n-octanol/water): 6.42
NS(=O)(=O)c1ccc(N/N=C2\C(=O)Nc3ccc(C(=O)NCCc4c[nH]cn4)cc32)cc1  logP (octanol/buffer, 40 mM buffer; pH 11): 1.01
COc1ccc(C2CC(Nc3ccc(-c4ccc(NC5=NOC(c6ccc(OC)cc6)C5)cc4)cc3)=NO2)cc1 (stereo not drawn)  logP (shake flask UV/Vis; n-octanol/water): 6.16
Cc1nc(C)c(-c2ccnc(Nc3cccc(C#N)c3)n2)s1  logP (octanol/buffer; 67 µM, pH 11): 3.89
COc1ccccc1C1CC(Nc2ccc(-c3ccc(NC4=NOC(c5ccccc5OC)C4)cc3)cc2)=NO1 (stereo not drawn)  logP (shake flask UV/Vis; n-octanol/water): 6.01
O=c1cc(/C=C/c2ccc(N(c3ccccc3)c3ccccc3)cc2)oc(/C=C/c2ccc(N(c3ccccc3)c3ccccc3)cc2)c1  logP (n-octanol/10 mM PBS; pH 7.4): 2.08
CC(CCC(=O)OCc1cccc(CN(C(=O)OCc2ccc(B3OC(C)(C)C(C)(C)O3)cc2)[c-]2cccc2)c1)C1CCC2C3C(O)CC4CC(O)CCC4(C)C3CC(O)C12C.[Fe+2].c1cc[cH-]c1 (stereo not drawn)  logP (RP-TLC; pH 7.4): > 6.25
O=c1c(O)c(-c2ccc(O)c(O)c2)oc2cc(O)cc([O][Ga+][O]c3cc(O)cc4oc(-c5ccc(O)c(O)c5)c(O)c(=O)c34)c12  logP (shake-flask octanol/PBS; pH 7.4, 37 °C): 0.46
Cc1cc(NC(=O)c2ccc(Br)cc2)n[nH]1  logP (octanol/buffer, 40 mM buffer; pH 11): 2.7
O=C(O)CCC(=O)NCCCOCCOCCOCCCNC(=O)CCC(=O)O  logP (shake-flask; n-octanol/water; 24 °C): -0.48
CC(=O)N1N=C(Nc2ccc(-c3ccc(NC4=NN(C(C)=O)C(c5ccc(N(C)C)cc5)C4)cc3)cc2)CC1c1ccc(N(C)C)cc1 (stereo not drawn)  logP (shake flask UV/Vis; n-octanol/water): 6.58
Oc1c(Br)cc(Br)c2nc3cc(Cl)ccc3nc12  logP (UV-vis; octanol/water): 0.68 ± 0.13

Excerpt of the above:
CCCCCCC(=O)[O][Pt]([NH2])([NH2])([Cl])([Cl])[O]C(=O)CCC(C)C1CCC2C3CCC4CC(O)CCC4(C)C3CCC12C (stereo not drawn)  logP (shake flask; octanol/phosphate buffer; pH 7.4): -0.29
COc1cc(C2CC(Nc3ccc(-c4ccc(NC5=NN(C(C)=O)C(c6ccc(O)c(OC)c6)C5)cc4)cc3)=NN2C(C)=O)ccc1O (stereo not drawn)  logP (shake flask UV/Vis; n-octanol/water): 5.25
CC(=O)[O][Pt]([NH2])([NH2])([Cl])([Cl])[O]C(=O)CCC(C)C1CCC2C3CCC4CC(O)CCC4(C)C3CCC12C (stereo not drawn)  logP (shake flask; octanol/phosphate buffer; pH 7.4): -0.53
